Results collected from several papers.
Lines come from different studies, so protocols differ.
Target: Mitogen-activated protein kinase 9 (MAPK9, Homo sapiens, UniProt P45984)
Sequence of UniProt P45984 (whole entry, looked up): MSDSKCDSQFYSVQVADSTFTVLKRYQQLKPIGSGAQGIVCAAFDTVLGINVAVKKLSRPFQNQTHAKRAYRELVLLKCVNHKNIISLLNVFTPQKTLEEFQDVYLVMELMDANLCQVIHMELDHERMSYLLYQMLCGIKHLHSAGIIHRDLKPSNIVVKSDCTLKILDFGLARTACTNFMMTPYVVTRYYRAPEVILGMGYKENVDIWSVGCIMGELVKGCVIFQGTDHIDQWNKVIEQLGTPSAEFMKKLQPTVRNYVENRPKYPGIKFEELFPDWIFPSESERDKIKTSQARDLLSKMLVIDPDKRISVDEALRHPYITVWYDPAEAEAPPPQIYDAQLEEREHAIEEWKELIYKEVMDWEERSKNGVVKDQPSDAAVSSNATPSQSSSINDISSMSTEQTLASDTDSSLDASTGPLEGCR

Nc1ccc(/C=C/C(=O)N2CCc3c(oc4c(-c5ccc(F)cc5)cc(-c5ccc(C(=O)N6CCC(F)(F)CC6)cn5)cc34)C2)cn1
remaining binding (binding, competition with immobilised ligand; 1 µM): 94%

O=C(CN1CN(c2ccccc2)C2(CCN(C(=O)c3cnc4[nH]ncc4c3)CC2)C1=O)NCC(F)(F)F
inhibition (inhibitor; concentration not given): < 50%

O=C1NC(=O)c2c1c1cc(F)c[n+]3c1c1c2c2cc(O)ccc2[n]1[Ru-4]312([N]=C=S)[S+]3CC[S+]1CC[S+]2CC3 (centres unmarked)
remaining activity (enzyme activity; 100 nM, human enzyme, together with: 10 µM ATP; relative to: untreated): 93%

CN(C)[C@H]1C[C@@]23CC[C@@]4(O2)C(=CC[C@]2(C)[C@@H](c5ccc6ccncc6c5)CC[C@H]24)C=C3[C@@H](O)[C@@H]1O
inhibition (ATP probe labelling, inhibitor, KiNativ profiling; 0.1 µM): -1%

CS(C)(=O)=Nc1ccc(-c2ccc(-c3nc4cc(O[C@@H]5CO[C@H]6[C@@H]5OC[C@H]6O)[nH]c4cc3F)cc2)cc1
inhibition (enzyme activity, inhibitor; 10 µM): 5%

CCOC(=O)[C@@H]1Cc2c(cc([N+](=O)[O-])cc2[N+](=O)[O-])[C@H](O)[C@]12C(=O)Nc1ccc(Br)cc12
remaining binding (KINOMEscan; 100 nM; relative to: DMSO control): 100%

CC(C)[C@H]1NC(=O)C[C@H]2/C=C/CCSSC[C@@H](NC1=O)C(=O)N[C@H](Cc1cccc3ccccc13)C(=O)NCC(=O)O2
inhibition (enzyme activity, inhibitor; 10 µM): -4.1%

C[C@H](NCc1ccc(-c2ccc(C(F)(F)F)cc2)cc1)C(N)=O
inhibition (cell-free assay, competition with immobilised ligand; 1 µM): 4%

Some of these lines once more:
O=C(CN1CN(c2ccccc2)C2(CCN(C(=O)c3cnc4[nH]ncc4c3)CC2)C1=O)NCC(F)(F)F
inhibition (inhibitor; concentration not given): < 50%
